Assay results pooled from the literature.
Each numbered part is a random draw from the data of one study; scales do not carry over between parts. “And” joins repeats or separate records; there may be more than shown.
Chain of UniProt Q12866 (whole entry, looked up): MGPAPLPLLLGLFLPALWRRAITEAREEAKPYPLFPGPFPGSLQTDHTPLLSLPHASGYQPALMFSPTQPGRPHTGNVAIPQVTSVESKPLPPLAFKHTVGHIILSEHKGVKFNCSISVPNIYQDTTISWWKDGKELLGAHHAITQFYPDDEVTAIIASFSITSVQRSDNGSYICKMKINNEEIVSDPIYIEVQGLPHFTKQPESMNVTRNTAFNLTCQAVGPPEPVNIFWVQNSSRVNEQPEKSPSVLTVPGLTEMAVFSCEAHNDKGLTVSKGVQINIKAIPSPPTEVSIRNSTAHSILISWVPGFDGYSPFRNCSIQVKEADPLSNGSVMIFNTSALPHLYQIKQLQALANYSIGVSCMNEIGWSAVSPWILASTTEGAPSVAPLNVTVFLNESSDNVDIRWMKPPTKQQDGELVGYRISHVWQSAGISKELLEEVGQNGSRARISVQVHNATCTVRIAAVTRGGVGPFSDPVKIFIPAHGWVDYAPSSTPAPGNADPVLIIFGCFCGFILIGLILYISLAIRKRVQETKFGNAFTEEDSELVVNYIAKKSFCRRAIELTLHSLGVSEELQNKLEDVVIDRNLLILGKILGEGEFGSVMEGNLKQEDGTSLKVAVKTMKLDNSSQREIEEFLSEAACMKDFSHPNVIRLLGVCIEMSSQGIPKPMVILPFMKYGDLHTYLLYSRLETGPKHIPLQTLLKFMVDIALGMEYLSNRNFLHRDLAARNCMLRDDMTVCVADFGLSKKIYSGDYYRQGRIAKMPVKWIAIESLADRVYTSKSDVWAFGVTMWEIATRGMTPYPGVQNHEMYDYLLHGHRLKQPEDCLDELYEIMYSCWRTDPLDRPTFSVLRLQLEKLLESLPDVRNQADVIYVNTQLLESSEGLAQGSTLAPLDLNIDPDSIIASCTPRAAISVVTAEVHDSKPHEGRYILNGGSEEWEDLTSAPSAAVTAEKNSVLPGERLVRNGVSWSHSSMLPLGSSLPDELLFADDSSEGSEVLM
Chain of UniProt Q8NFD2 (whole entry, looked up): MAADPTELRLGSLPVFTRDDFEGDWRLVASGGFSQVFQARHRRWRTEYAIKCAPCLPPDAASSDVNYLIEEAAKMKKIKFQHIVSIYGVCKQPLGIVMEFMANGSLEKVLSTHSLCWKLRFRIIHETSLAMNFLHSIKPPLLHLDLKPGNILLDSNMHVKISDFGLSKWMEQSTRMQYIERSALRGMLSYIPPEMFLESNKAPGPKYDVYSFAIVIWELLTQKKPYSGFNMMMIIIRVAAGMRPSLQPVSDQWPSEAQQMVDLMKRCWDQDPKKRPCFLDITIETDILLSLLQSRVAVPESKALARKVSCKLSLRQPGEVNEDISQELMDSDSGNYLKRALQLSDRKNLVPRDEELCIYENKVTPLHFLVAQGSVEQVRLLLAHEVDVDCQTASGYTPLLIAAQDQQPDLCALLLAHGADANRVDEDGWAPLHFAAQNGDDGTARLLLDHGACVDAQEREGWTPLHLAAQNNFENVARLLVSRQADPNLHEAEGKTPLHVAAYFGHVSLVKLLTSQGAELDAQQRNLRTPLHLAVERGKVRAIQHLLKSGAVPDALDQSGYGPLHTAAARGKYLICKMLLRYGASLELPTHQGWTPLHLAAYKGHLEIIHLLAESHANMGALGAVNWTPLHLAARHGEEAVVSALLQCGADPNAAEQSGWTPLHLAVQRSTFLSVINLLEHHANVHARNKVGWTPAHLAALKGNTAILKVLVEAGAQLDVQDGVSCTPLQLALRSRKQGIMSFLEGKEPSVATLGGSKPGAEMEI
Chain of UniProt O94768 (whole entry, looked up): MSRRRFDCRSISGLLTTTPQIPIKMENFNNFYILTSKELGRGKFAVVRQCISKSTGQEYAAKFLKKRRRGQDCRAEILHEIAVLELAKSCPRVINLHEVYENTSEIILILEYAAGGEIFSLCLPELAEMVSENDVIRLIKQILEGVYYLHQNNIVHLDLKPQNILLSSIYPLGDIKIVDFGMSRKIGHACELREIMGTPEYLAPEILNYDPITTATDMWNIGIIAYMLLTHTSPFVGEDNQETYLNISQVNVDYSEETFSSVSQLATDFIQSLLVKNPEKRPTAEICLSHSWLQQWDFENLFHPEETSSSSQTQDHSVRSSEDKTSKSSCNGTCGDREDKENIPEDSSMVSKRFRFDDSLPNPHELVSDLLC
Chain of UniProt Q8TDR2 (whole entry, looked up): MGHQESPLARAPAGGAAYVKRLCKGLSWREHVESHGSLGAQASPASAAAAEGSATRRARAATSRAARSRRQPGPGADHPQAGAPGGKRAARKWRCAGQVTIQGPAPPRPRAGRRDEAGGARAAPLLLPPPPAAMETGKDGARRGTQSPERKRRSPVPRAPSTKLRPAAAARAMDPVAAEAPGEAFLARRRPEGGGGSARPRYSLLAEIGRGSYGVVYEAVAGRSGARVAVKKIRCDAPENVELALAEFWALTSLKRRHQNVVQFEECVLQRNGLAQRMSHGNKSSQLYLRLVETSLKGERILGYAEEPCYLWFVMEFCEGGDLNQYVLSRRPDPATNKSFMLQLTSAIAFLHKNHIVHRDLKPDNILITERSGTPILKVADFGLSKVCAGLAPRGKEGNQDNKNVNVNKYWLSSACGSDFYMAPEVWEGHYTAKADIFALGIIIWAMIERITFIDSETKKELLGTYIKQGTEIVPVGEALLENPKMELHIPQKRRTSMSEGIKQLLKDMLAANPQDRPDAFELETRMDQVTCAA
Chain of UniProt P25098 (whole entry, looked up): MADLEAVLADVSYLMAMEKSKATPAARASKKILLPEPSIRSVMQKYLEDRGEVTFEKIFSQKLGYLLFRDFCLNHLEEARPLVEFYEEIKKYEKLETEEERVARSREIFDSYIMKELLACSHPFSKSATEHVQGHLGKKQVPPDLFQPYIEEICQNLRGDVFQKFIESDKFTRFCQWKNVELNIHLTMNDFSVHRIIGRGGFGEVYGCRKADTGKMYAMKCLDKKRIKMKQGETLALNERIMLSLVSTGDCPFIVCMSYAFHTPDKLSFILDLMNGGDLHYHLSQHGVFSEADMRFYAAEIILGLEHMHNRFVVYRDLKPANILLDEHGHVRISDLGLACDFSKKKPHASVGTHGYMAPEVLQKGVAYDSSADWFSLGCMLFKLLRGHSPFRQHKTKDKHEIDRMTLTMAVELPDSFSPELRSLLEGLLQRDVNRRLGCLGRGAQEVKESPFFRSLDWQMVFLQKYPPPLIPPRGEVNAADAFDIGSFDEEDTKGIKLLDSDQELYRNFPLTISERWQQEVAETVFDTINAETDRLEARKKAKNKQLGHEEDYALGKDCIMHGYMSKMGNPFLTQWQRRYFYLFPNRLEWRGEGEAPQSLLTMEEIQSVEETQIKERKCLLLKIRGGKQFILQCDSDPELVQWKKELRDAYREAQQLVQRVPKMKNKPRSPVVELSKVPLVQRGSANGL

Study 1
SMILES: COc1cc(-c2cn(C3CCc4ccccc4N(CC(F)(F)F)C3=O)nn2)ccc1-n1ccc(C)n1 (centres unmarked)
Read-out: cell-free assay
Technique: competition with immobilised ligand
Concentration: 1 µM
target | remaining binding
STK17B (Homo sapiens, UniProt O94768) | 100%
STK35 (Homo sapiens, UniProt Q8TDR2) | 100%
GRK2 (Homo sapiens, UniProt P25098) | 87%
MERTK (Homo sapiens, UniProt Q12866) | 100%
PRKACA (Homo sapiens, UniProt P17612) | 100%
ANKK1 (Homo sapiens, UniProt Q8NFD2) | 78%
EGFR (Homo sapiens, UniProt P00533, G719C) | 100%

Study 2
Compound: CC(C)(C(=O)O)[C@H](NC(=O)Cc1cccc(I)c1)c1ccc2oc(=O)[nH]c2c1
Cell line: A375
Technique: Incucyte 3D growth
Concentration: 30 µM
Reading: higher = more growth
setting | spheroid area
90.52 h | 5.67e+07 a.u. and 5.78e+07 a.u. and 5.85e+07 a.u. and 5.86e+07 a.u. and 7.12e+07 a.u. and 4.59e+07 a.u.
378.52 h | 1.83e+08 a.u. and 1.9e+08 a.u. and 1.65e+08 a.u. and 1.76e+08 a.u. and 1.69e+08 a.u. and 1.59e+08 a.u.
276.52 h | 1.75e+08 a.u. and 1.84e+08 a.u. and 1.79e+08 a.u. and 2.02e+08 a.u.

Study 3
Target: Death-associated protein kinase 3 (DAPK3, Homo sapiens, UniProt O43293)
Chain of UniProt O43293 (whole entry, looked up): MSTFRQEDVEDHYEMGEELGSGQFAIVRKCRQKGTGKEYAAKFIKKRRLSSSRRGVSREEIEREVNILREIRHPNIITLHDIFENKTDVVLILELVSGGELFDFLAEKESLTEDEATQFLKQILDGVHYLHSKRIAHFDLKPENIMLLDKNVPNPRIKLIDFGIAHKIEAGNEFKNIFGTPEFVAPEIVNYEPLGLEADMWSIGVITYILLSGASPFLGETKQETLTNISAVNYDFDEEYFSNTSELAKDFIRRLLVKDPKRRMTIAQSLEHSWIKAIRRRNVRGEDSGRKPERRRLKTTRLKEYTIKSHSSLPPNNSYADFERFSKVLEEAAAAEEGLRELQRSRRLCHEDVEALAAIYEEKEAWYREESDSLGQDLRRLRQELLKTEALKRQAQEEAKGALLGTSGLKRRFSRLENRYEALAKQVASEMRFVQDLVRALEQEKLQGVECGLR
Read-out: enzyme activity
Action: inhibitor
Concentration: 0.5 µM
Baseline: control
SMILES | remaining activity
Nc1[nH]nc2nc3ccccc3nc12 | 98.2%
O=S(=O)(c1cccc2cnccc12)N1CCCNCC1 | 93%
COc1ccc(C(=O)Nc2sc3c(c2C(N)=O)CCCC3)cc1OC | 102%
Nc1ncnc2n[nH]c(Nc3ccc(F)cc3)c12 | 124%
O=C1NC(=O)C(c2cn(CCCO)c3ncccc23)=C1c1cnccn1 | 80.2%
CCOC(=O)c1c(C)[nH]c(/C=C2\C(=O)Nc3ccccc32)c1C | 85.1%
CN(C)c1ccc(C=C2C(=O)Nc3ccccc32)cc1 | 101%
CC(C)[C@H](CO)Nc1nc(Nc2cc(N)cc(Cl)c2)c2ncn(C(C)C)c2n1 | 96.7%
O=C(O)c1ccc2c3c1cccc3c(=O)n1c3ccccc3nc21 | 51.3%
N#CC(C#N)=C(N)/C(C#N)=C/c1ccc(O)cc1 | 91.1%
COc1cc2ncnc(Nc3ccc(Oc4ccccc4)cc3)c2cc1OC | 96.9%
Cc1cccc(-c2[nH]c(C(C)(C)C)nc2-c2ccc3c(c2)OCO3)n1 | 97%
OCC(O)CCON=C1C(c2c(O)[nH]c3ccccc23)=Nc2ccccc21 (centres unmarked) | 66.6%
NCCNc1ncc(C(N)=O)c(Nc2cccc(C(F)(F)F)c2)n1 | 96.7%

Study 4
Species: human
Medium: microsomes or S9
Concentration: 2 µM
Time: 0.5 h
SMILES | remaining compound [%]
CCCN(CCC)CC(c1ccc(-c2cccnc2)cc1)N(C)C(=O)CN1C(=O)COc2cc(Cl)c(Cl)cc21 (centres unmarked) | 12.4
CC(C)c1cc(C(=O)N2C[C@@H]3CC[C@H](C2)N(C)C3=O)c(O)c(C(C)C)c1 | > 100
COc1cc2c(cc1OC)C1CCCCC1OC2c1cccc(F)c1 (centres unmarked) | 52.7
Cc1ccc2nc3c(cc(C(=O)NCCCn4ccnc4)n3C)c(=O)n2c1 | 74.9
COC(=O)[C@@H](OC(C)(C)C)c1c(C)nc2c(c(C)c(C)n2CC2CCO2)c1-c1ccc2c(c1)CCCO2 (some centres unmarked) | 2.85
